Measured values pooled from the literature.
Parts stem from different laboratories: compare values within a part only. Changes are numbered by the printed parent chain.
UniProt Q96RR4, sequence (whole entry, looked up): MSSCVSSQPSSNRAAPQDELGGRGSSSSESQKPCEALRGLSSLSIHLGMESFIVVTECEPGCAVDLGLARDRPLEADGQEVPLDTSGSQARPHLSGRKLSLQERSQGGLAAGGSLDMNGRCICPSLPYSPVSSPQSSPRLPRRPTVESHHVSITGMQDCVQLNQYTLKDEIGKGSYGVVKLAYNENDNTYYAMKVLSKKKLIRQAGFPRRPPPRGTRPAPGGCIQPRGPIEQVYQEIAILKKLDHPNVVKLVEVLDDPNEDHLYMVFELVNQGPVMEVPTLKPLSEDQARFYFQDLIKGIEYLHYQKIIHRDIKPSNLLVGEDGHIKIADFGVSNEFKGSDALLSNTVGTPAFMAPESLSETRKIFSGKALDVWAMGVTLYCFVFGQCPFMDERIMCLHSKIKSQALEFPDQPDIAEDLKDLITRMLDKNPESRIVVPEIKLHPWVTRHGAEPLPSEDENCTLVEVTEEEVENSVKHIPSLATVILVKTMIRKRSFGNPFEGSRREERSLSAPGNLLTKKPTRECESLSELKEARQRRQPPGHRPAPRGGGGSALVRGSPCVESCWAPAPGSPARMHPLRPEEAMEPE
UniProt P36897, sequence (whole entry, looked up): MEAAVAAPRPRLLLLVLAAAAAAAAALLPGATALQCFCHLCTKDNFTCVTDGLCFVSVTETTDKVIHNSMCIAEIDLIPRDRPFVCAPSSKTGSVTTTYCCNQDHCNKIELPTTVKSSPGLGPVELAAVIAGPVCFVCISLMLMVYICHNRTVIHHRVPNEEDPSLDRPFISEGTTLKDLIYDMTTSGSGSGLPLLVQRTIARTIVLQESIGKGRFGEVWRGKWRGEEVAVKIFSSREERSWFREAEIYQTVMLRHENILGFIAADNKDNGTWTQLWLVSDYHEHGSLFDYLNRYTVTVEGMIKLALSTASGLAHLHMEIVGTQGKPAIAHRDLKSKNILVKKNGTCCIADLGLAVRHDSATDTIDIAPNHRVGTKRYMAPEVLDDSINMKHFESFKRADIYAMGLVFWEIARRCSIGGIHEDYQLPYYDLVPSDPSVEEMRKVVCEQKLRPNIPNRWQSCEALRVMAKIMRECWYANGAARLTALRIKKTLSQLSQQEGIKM

Block 1 — method: protein-binding microarray; molecule type: double-stranded DNA, one strand shown; sample: in vitro; tested at: 250 nM; notes: 60-bp whole probe; added: salmon DNA 0.4 mg/ml; baseline: random background probes; reading: higher = stronger binding; endpoint: log fluorescence; shared flanks, not repeated: GCCTAGCAC … GTCTTGATTCGCTTGACGCTGCTG
Target: Interferon regulatory factor 5, full length, phosphomimetic (IRF5, Homo sapiens, UniProt Q13568-2, residues 1-514, K96S/S451D/S453D/S456D/S462D)
Strand = GGAAAAATGATGTTTTAGGTCGTGCTA; value = 0.433 z-score
Strand = GACGGTTTTCTACTGCTGACGTGCTAG; value = 0.717 z-score
Strand = GACGGACCGCTTATCCTGACGTGCTAG; value = -0.419 z-score
Strand = TTAGGTTTCGGTTCGGGTTAGTGCTAG; value = 10.4 z-score
Strand = GACGATTTCGGGACGGGAGACGTGCTA; value = 1.76 z-score
Strand = CTGTGTACATCTCTCTTAAAGTGCTAG; value = -0.123 z-score
Strand = GACGGTATCGAGACTGGGGACGTGCTA; value = 1.16 z-score
Strand = TTAGGTCTCAGACTGGGTTAGTGCTAG; value = -0.312 z-score

Block 2 — method: RNA Bind-n-Seq; molecule type: RNA; sample: in vitro; tested at: 20 nM; notes: 6-mer, flanks averaged, single round; added: 150 mM KCl; baseline: input library; reading: higher = stronger binding; endpoint: 6-mer enrichment (R)
Target: TAR DNA-binding protein 43, full length, His tag (TARDBP, Homo sapiens, UniProt Q13148, residues 1-414)
Strand = UCAGGG; value = 2.05
Strand = AUCGUA; value = 0.6
Strand = UGCCGG; value = 1.41
Strand = GAAGGU; value = 1.37
Strand = ACAUAG; value = 0.684
Strand = UACCGA; value = 0.632
Strand = GUAGGA; value = 1.4
Strand = GCGCCA; value = 0.953

Block 3 — method: DHFR PCA, deep sequencing; sample: yeast; added: (+)-ABA 0.032 µM; baseline: wild-type fitted maximum; reading: higher = stronger binding; endpoint: relative binding score
Target: ABI1, truncated, D143A, DHFR fusion (Arabidopsis thaliana)
Notes: methotrexate growth selection, single substitutions
Starting sequence: PYL1, truncated, DHFR fusion (Arabidopsis thaliana); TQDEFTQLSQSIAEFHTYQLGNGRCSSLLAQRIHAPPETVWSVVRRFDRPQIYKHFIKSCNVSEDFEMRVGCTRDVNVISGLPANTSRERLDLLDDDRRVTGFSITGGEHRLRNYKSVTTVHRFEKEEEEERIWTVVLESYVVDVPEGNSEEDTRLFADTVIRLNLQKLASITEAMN; partner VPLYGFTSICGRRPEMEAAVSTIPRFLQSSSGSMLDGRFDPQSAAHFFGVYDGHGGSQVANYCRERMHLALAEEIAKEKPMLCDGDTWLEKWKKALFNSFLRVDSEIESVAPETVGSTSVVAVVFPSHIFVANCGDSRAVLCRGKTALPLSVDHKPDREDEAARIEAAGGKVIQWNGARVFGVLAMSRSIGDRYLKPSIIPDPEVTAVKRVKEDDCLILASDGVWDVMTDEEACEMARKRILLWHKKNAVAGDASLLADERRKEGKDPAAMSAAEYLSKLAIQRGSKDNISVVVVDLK
Change = L20Q; value = 33.6%
Change = I57R; value = -2.06%
Change = E14R; value = 3.86%
Change = T86Q; value = 5.89%
Change = Q167E; value = 33.6%
Change = E128S; value = 34.8%
Change = E130D; value = 47.7%
Change = F157S; value = 5.82%

Further values, each from its own experiment — effect on: enzyme activity; mode: inhibitor; tested at: 0.5 µM; baseline: control
MAPK9: Mitogen-activated protein kinase 9 (MAPK9, Homo sapiens, UniProt P45984)
SMILES = CO[C@H]1C[C@@H]2CC[C@@H](C)[C@@](O)(O2)C(=O)C(=O)N2CCCC[C@H]2C(=O)O[C@H]([C@H](C)C[C@@H]2CC[C@@H](O)[C@H](OC)C2)CC(=O)[C@H](C)/C=C(\C)[C@@H](O)[C@@H](OC)C(=O)[C@H](C)C[C@H](C)/C=C/C=C/C=C/1C; target = MAPK9; remaining activity = 98.4%
SMILES = Cc1ccc(Nc2nccc(N(C)c3ccc4c(C)n(C)nc4c3)n2)cc1S(N)(=O)=O; target = Calcium/calmodulin-dependent protein kinase kinase 2 (CAMKK2, Homo sapiens, UniProt Q96RR4); remaining activity = 98.5%
SMILES = O=S(=O)(c1cccc2cnccc12)N1CCCNCC1; target = TGF-beta receptor type-1 (TGFBR1, Homo sapiens, UniProt P36897); remaining activity = 98.4%
SMILES = COc1ccc(C(=O)Nc2sc3c(c2C(N)=O)CCCC3)cc1OC; target = MAPK9; remaining activity = 118%

For quick reference, copied from above (block 1):
Strand = GACGGTTTTCTACTGCTGACGTGCTAG; value = 0.717 z-score
Strand = GACGGACCGCTTATCCTGACGTGCTAG; value = -0.419 z-score
